Experimental data of several laboratories.
Parts stem from different laboratories: compare values within a part only. Changes are numbered by the printed parent chain.

Sample 1 — method: DNA-protein interaction ELISA; molecule type: double-stranded DNA, one strand shown; matrix: in vitro, bacterial lysate; tested at: not given; setting: whole dsDNA probe, crude lysate protein; relative to: highest signal in screen; direction: higher = stronger binding
Target: Probable WRKY transcription factor 50, DNA-binding domain (WRKY50, Arabidopsis thaliana, UniProt Q8VWQ5, residues 99-173)
Residues (chain): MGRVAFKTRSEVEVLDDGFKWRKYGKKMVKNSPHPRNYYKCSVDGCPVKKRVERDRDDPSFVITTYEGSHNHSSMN
Strand	relative absorbance
AAAAAATTCAAAATGATCACTACGGGAAAA	9.63 % of maximum
AAAAAAGTTGCCGACGATTGCGGGTTAAAA	34.2 % of maximum
AAAAAACCGGCACGATTTGGATATTCAAAA	17.6 % of maximum
AAAAAAAAGTGCCAACGTTCAAGAAAAA	17.8 % of maximum
AAAAAAAACGTCTGGCGGGGTTGAGAAAAA	39 % of maximum
AAAAAAGCTTTCAACATCTGCGTCCAAAAA	20.2 % of maximum
AAAAAATTACGTTTGTATTTGTAAAA	17.6 % of maximum
AAAAAAGTAGGTGCTGATGCTGGCCGAAAA	12.2 % of maximum

Sample 2 — method: RNAcompete; molecule type: RNA; matrix: in vitro; tested at: 20 nM; setting: 7-mer, probes averaged, single round; relative to: mean of 7-mers; direction: higher = stronger binding
Target: PABPC1L2, full length, GST fusion (mouse, UniProt A0ABA7IW68)
Target sequence (chain): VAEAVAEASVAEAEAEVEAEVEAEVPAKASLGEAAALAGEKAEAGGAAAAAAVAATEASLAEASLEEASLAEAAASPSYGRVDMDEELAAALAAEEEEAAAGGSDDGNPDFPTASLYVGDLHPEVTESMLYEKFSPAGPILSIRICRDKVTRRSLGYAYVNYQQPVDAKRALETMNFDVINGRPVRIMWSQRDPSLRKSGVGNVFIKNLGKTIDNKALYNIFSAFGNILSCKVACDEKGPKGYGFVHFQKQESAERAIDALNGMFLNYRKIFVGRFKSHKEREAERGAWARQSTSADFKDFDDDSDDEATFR
Strand	7-mer Z-score
AUCUUUG	-0.255
UAAAUAA	1.93
AGCGGCG	0.131
GAUAGAA	0.37
UGCCAUA	-0.175
UAGGCCA	-0.112
UGCGGCU	-0.0699
GUCUUCA	-0.322

Sample 3 — Substitution: R32I; method: DHFR PCA, deep sequencing; matrix: yeast; relative to: wild-type fitted maximum; direction: higher = stronger binding
Target: ABI1, truncated, D143A, DHFR fusion (Arabidopsis thaliana)
Setting: methotrexate growth selection, single substitutions
Starting sequence: PYL1, truncated, DHFR fusion (Arabidopsis thaliana); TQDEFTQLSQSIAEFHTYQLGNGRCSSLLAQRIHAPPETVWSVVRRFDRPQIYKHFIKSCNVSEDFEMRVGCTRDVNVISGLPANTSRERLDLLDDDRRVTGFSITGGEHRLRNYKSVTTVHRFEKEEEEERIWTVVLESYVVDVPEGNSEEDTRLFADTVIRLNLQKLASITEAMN
together with	relative binding score [%]
(+)-ABA 0 µM	31.2
(+)-ABA 17 µM	80.8
(+)-ABA 0.0091 µM	39.4
(+)-ABA 1.4 µM	41.7
(+)-ABA 2500 µM	85.4
(+)-ABA 710 µM	95.6

Other studies, line by line
Structure (SMILES)	cell line	assay	conditions	scale	quantity	result
COC(=O)C(Cc1ccc(OCCn2c(=O)sc3cc(C(=O)c4ccccc4)ccc32)cc1)C(=O)OC	mouse MPNST tumor cells	high-content nuclear imaging, measured: cell number	10 µM, 12 h, mean of 2 replicates	relative to: plate mean, higher = more cells	nuclei count	-0.0778 z-score

A few entries again (sample 1):
Strand	relative absorbance
AAAAAATTCAAAATGATCACTACGGGAAAA	9.63 % of maximum
AAAAAAGTAGGTGCTGATGCTGGCCGAAAA	12.2 % of maximum
AAAAAAAACGTCTGGCGGGGTTGAGAAAAA	39 % of maximum
AAAAAATTACGTTTGTATTTGTAAAA	17.6 % of maximum
